Assay results pooled from the literature.
Values joined by “and” are separate records of one study, mostly repeats; a detail may differ. Numbers after ± are the reported error.

`[2H]C([2H])(N)C([2H])([2H])NC(=O)c1cc(C2CC2)nc2c1cnn2C(C)C` has a plasma concentration of 1820 ng/mL and 1760 ng/mL and 2200 ng/mL and 2080 ng/mL (mouse BALB/c female, plasma; intraperitoneal, 50 mg/kg, 0.25 h).
`C=CC(=O)N1CCCC(n2c(=O)c3ncccc3n(Cc3ccc(Oc4ccccc4)cc3)c2=O)C1` (stereo not shown) gave a plasma concentration of 26900 ng/mL (male BALB/c mouse, plasma; oral, 200 mg/kg, 0.25 h).
The plasma concentration of `Cc1noc(C)c1Cn1cc(N2C(=O)CN(Cc3cccc(OS(=O)(=O)O)c3)C2=O)cn1` is reported as 4750 ng/mL (Sprague-Dawley rat, male; oral, 100 mg/kg of parent drug, 0.5 h).
`CC[n+]1cccc2cc(/C=N/NC(=O)c3cccc(C(=O)N/N=C/c4ccc5c(ccc[n+]5CC)c4)c3)ccc21` has a ΔTm of 3.8 ± 0.2 °C (MYC parallel G4 DNA; FRET melting; 1 µM, DNA 0.2 µM).
For `CC1(C)CC[C@@]2(CO)C(=C3C=C[C@@H]4[C@@]5(C)CC[C@H](O)[C@@](C)(CO)[C@@H]5CC[C@@]4(C)[C@]3(C)C[C@@H]2O)C1`, the plasma concentration was 46.4 ng/mL (UHPLC-MS/MS; mouse, plasma; oral, 50 mg/kg of saikosaponin a, 6 h).
`CC[C@H](C)[C@H](NC(=O)[C@H](Cc1ccc(O)cc1)NC(=O)[C@@H](NC(=O)[C@H](CCCNC(=N)N)NC(=O)[C@@H](N)CC(=O)O)C(C)C)C(=O)N[C@@H](Cc1c[nH]cn1)C(=O)N1CCC[C@H]1C(=O)O` gave a plasma concentration of 1.89 ng/mL (LC-MS/MS; Sprague-Dawley rat, both sexes, plasma; subcutaneous, 10 mg/kg/day, day 27, 2 h, 120 min).
The plasma concentration of `C=C[C@]1(C)C[C@@H](OC(=O)CSc2ccc(NC(=O)c3ccco3)cc2)[C@]2(C)[C@H](C)CC[C@]3(CCC(=O)[C@H]32)[C@@H](C)[C@@H]1O` is reported as 869 ng/mL and 583 ng/mL and 855 ng/mL and 695 ng/mL and 409 ng/mL (Mycoplasma gallisepticum-infected chickens, plasma; intramuscular, 5 mg/kg, 0.083 h).
With `COc1ccc(C(N)=O)cn1` the plasma concentration was 4.3 µM (Han Wistar rats, male, plasma; oral, 30 mg/kg, 4.00 h).
For `Cc1ncsc1-c1ccc(CNC(=O)[C@@H]2C[C@@H](O)CN2C(=O)[C@@H](NC(=O)COCC(C)(COCCOCCOCCNC(=O)C[C@@H]2N=C(c3ccc(Cl)cc3)c3c(sc(C)c3C)-n3c(C)nnc32)COCCOCCOCCNC(=O)C[C@@H]2N=C(c3ccc(Cl)cc3)c3c(sc(C)c3C)-n3c(C)nnc32)C(C)(C)C)cc1`, the plasma concentration was 3120 ng/mL and 3480 ng/mL (male C57BL/6 mice, plasma; intravenous, 5 mg/kg, 2 h, 20-fold diluted sample).
The plasma concentration of `CNc1cc(C)c(C(N)=O)cn1` is reported as 82.7 µM (Han Wistar rats, male, plasma; oral, 30 mg/kg, 0.25 h).
The plasma concentration of `O=C1CCC(N2Cc3cc(C(=O)O)c(F)cc3C2=O)C(=O)N1` (stereo not shown) is reported as 234 ± 109 ng/mL (CD-1 mouse, male; oral, 10 mg/kg parent drug, 0.67 h).
With `O=C(N/N=C/c1cc[n+](CC2CC2)c2ccccc12)c1cc(C(=O)N/N=C/c2cc[n+](CC3CC3)c3ccccc23)ncn1` the ΔTm was 4.8 ± 0.2 °C (MYC parallel G4 DNA; FRET melting; 1 µM, DNA 0.2 µM, with: duplex DNA competitor 10 µM).
For `CNc1cc(N)c(C(N)=O)cn1`, the plasma concentration was 9.05 µM (Han Wistar rats, male, plasma; oral, 30 mg/kg, 3.00 h).

Some of these lines once more:
With `O=C(N/N=C/c1cc[n+](CC2CC2)c2ccccc12)c1cc(C(=O)N/N=C/c2cc[n+](CC3CC3)c3ccccc23)ncn1` the ΔTm was 4.8 ± 0.2 °C (MYC parallel G4 DNA; FRET melting; 1 µM, DNA 0.2 µM, with: duplex DNA competitor 10 µM).
